Experimental data of several laboratories.
Compare with care: the assays were run in different laboratories. ± marks the error that the study gave.

CN[C@@H](C)C(=O)N[C@H]1CN(C(=O)Cc2ccccc2)CC[C@H]2CC[C@@H](C(=O)NCc3ccc(C(C)C)cc3)N2C1=O  caspase-9 activity restored (E3 ubiquitin-protein ligase XIAP, BIR3 domain with caspase-9 (XIAP, Homo sapiens, UniProt P98170); antagonist; 50 µM, BIR3 domain): 23%
FC(F)(F)c1cnc2[nH]cc(Cc3cccc(Cl)c3)c2c1  inhibition (FGFR1 (Homo sapiens, UniProt P11362); enzyme activity, inhibitor; 1 µM): 56%
Cn1ccc2c(N3CCN(CCCCOc4ccc5c(c4)NC(=O)CC5)CC3)cccc21  off-rate fold increase (DRD2 (Homo sapiens, UniProt P14416, I184A); competitive binding kinetics; added: [3H]N-methylspiperone; baseline: I184A mutant over wild type): 8.7 fold
CNc1ccccc1C(=O)O[C@H]1C[C@H](n2cnc3c(N)ncnc32)O[C@@H]1COP(=O)(O)OP(=O)(O)O  pocket reverse rate constant (Unconventional myosin-Va (Gallus gallus, UniProt Q02440, D297C/G292C/I296C/S293C/V295G); stopped-flow FRET; 4 °C, added: MgCl2 10 mM): 0.37 ± 0.03 s⁻¹
N#Cc1cnc(Nc2nc3ccccc3o2)nc1-c1ccccc1F  maximal response (Grm5 (Rattus norvegicus, UniProt P31424); calcium mobilization, negative allosteric modulator; added: glutamate EC80; baseline: maximal glutamate response): 1.8 ± 0.4%
C[C@@H]1NC(=O)[C@H](CC(N)=O)NC(=O)[C@H](Cc2ccccc2)NC(=O)c2cc3ccccc3cc2NC(=O)[C@H](CCCNC(=N)N)NC(=O)[C@@H]2CCCN2C(=O)[C@H]2CCCN2C(=O)[C@H](Cc2ccccc2)NC1=O  antagonist activity (Melanocortin receptor 4 (Mus musculus, UniProt P56450); antagonist, cAMP β-galactosidase reporter; no activity up to, added: MTII): > 100 µM
CCCN(CC(=O)N(CCC)CC(=O)N(CC(N)=O)Cc1cn(CCCNC(=O)CCCOc2cccc(-c3nc4ccc(-c5nc6ccc(N7CCN(C)CC7)cc6[nH]5)cc4[nH]3)c2)nn1)C(=O)CNCc1cn(CCCNC(=O)CCCOc2cccc(-c3nc4ccc(-c5nc6ccc(N7CCN(C)CC7)cc6[nH]5)cc4[nH]3)c2)nn1  multivalent effect (MBNL1–r(CUG)109 complex; MBNL1 displacement; 0.65 pmol r(CUG)109; unit not given, added: yeast tRNA 3.7 µM; baseline: monomer 2 IC50 per module): 2.5
CSCC[C@H](NC(=O)[C@H](CCC(N)=O)NC(=O)[C@H](Cc1ccccc1)NC(=O)CNC(=O)CNC(=O)[C@@H](NC(C)=O)[C@@H](C)O)C(=O)N[C@@H](C)C(=O)N[C@@H](CC(C)C)C(=O)N[C@H](C(=O)O)[C@@H](C)O  Ki ratio (Heat shock cognate 71 kDa protein, substrate-binding domain (HSPA8, Homo sapiens, UniProt P11142); binding, competition fluorescence polarization; baseline: Ac-NRLLLTG Ki over cpd Ki): ≥ 5 fold
CC[C@H](C)[C@H](NC(=O)CNC(C)=O)C(=O)N[C@@H](CCCNC(=N)N)C(=O)N[C@@H](CCC(=O)O)C(=O)N[C@@H](C)C(=O)N[C@H](C(=O)N[C@@H](CC(C)C)C(=O)N[C@@H](CCCNC(=N)N)C(=O)N[C@@H](C)C(=O)N[C@@H](Cc1c[nH]c2ccccc12)C(=O)N[C@@H](CCC(=O)O)C(=O)N[C@@H](CCCNC(=N)N)C(=O)N[C@@H](CCCNC(=N)N)C(=O)N[C@@H](Cc1ccc(O)cc1)C(=O)NCC(=O)N[C@@H](Cc1ccccc1)C(=O)N1CCC[C@H]1C(=O)N[C@@H](CCCNC(=N)N)C(=O)N1CCC[C@H]1C(=O)N[C@@H](CC(C)C)C(=O)N[C@@H](CCCNC(=N)N)C(=O)N[C@@H](CO)C(=O)N[C@@H](CCC(=O)O)C(N)=O)[C@@H](C)O  ΔH (Antirepressor protein CarS (carS, Myxococcus xanthus, UniProt Q06911); ITC; pH 7.5, 25 °C): -8.46 ± 0.13 kcal/mol
COC(=O)c1ccc(CNC(=O)[C@@H]2C[C@@H](O)CN2C(=O)CC(C)(C)C)cc1  binding free energy (ΔG) (von Hippel-Lindau disease tumor suppressor, with Elongin B/C (VHL, Homo sapiens, UniProt P40337); isothermal titration calorimetry; 25 °C): -5.93 ± 0.04 kcal/mol
CC(=O)N[C@H]1[C@@H](O[C@H](C)[C@H](NC(=O)[C@@H](NC(=O)CNC(=O)[C@@H](N)Cc2c[nH]cn2)C(C)C)C(=O)N[C@@H](CO)C(=O)N[C@@H](C)C(=O)N2CCC[C@H]2C(=O)N[C@@H](CC(=O)O)C(=O)N[C@H](C(=O)N[C@@H](CCCNC(=N)N)C(=O)N2CCC[C@H]2C(=O)N[C@@H](C)C(=O)N2CCC[C@H]2C(=O)NCC(=O)N[C@@H](CO)C(N)=O)[C@@H](C)O)O[C@H](CO)[C@H](O)[C@@H]1O[C@@H]1O[C@H](CO)[C@H](O)[C@H](O)[C@H]1O  –ΔG (Galectin-3 (LGALS3, Homo sapiens, UniProt P17931); binding, isothermal titration calorimetry; full-length protein): 5.29 kcal/mol
O=C(Cn1ccnc1)N[C@H]1C[C@@H]1c1ccc(OCc2ccccc2)cc1  IC50 ratio (Aromatase (CYP19A1, Homo sapiens, UniProt P11511); inhibitor, MFC to HFC fluorescence; baseline: endoxifen over compound): 40 fold
Cc1cc(=O)oc2cc(NC(=O)CCCCCCCC(=O)NO)ccc12  binding enthalpy (ΔH) (HDAC8 (Homo sapiens, UniProt Q9BY41); isothermal titration calorimetry; concentration not given, pH 7.5, 25 °C): -4.6 ± 0.5 kcal/mol

For quick reference, copied from above:
CC(=O)N[C@H]1[C@@H](O[C@H](C)[C@H](NC(=O)[C@@H](NC(=O)CNC(=O)[C@@H](N)Cc2c[nH]cn2)C(C)C)C(=O)N[C@@H](CO)C(=O)N[C@@H](C)C(=O)N2CCC[C@H]2C(=O)N[C@@H](CC(=O)O)C(=O)N[C@H](C(=O)N[C@@H](CCCNC(=N)N)C(=O)N2CCC[C@H]2C(=O)N[C@@H](C)C(=O)N2CCC[C@H]2C(=O)NCC(=O)N[C@@H](CO)C(N)=O)[C@@H](C)O)O[C@H](CO)[C@H](O)[C@@H]1O[C@@H]1O[C@H](CO)[C@H](O)[C@H](O)[C@H]1O  –ΔG (Galectin-3 (LGALS3, Homo sapiens, UniProt P17931); binding, isothermal titration calorimetry; full-length protein): 5.29 kcal/mol
